Assay results gathered from unrelated publications.
Compare with care: the assays were run in different laboratories. Numbers after ± are the reported error.

Under “adverse event incidence”, FC(F)(F)c1ccc(CNc2ccc(Cc3c[nH]c4ncc(Cl)cc34)cn2)cn1 is recorded as 26% (item: Dysgeusia; patients with advanced solid tumours; oral, dose not given, all grades, possibly related to drug).
For Cc1cc(Nc2ccc(S(F)(F)(F)(F)F)cc2)n2nc(C(C)(F)F)nc2n1, “adverse event gastrointestinal disorders” read 22.2% (Plasmodium vivax malaria patients; oral, 600 mg).
Under “diastolic blood pressure”, COc1ccc2c(c1)CN(C(=O)CCN1CCC(Cc3ccccc3)CC1)CC[S@@+]2[O-] is recorded as 76 ± 7 mmHg (telemetry; conscious dog; intravenous, 2 mg/kg, 1 h).
For c1ccc2c(c1)ccc1cc3c(ccc4ccccc43)cc12, “literature range of log K” read 5.42 to 5.7 log units (PDMS-water partitioning; PAH compilation).
Under “median ACTH level”, N#Cc1ccc2c(c1)[C@H]1CCCN(C(=O)c3ccc4[nH]cnc4c3)[C@H]1C2 is recorded as 9.5 pmol/L (human; 20 mg, day 7).
CNCCOC12CC3(C)CC(C)(CC(Cn4ncc(-c5ccc(N6CCc7cccc(C(=O)Nc8nc9ccccc9s8)c7C6)nc5C(=O)O)c4C)(C3)C1)C2 has a plasma concentration of 1.6 ± 0.1 ng/mL (anaesthetised male beagle dogs; intravenous bolus, 0.03 mg/kg, 45 min).
O=C(Nc1nc2cccc(-c3ccc(CN4CCS(=O)(=O)CC4)cc3)n2n1)C1CC1: “treatment-emergent adverse events” 0% (item: cardiac disorders; human rheumatoid arthritis patients; oral, 200 mg once daily, 4 weeks, regardless of relatedness).
The licking latency of Cc1ccc(N(C)C(=O)/C=C/c2ccco2)cc1 is reported as 14.5 ± 0.7 s (hot plate test; mice; oral, 30 mg/kg single, 15 min).
FC(F)(F)c1ccc(CNc2ccc(Cc3c[nH]c4ncc(Cl)cc34)cn2)cn1: “cognitive disorder incidence” 18% (patients with advanced solid tumours; oral, 1000 mg/day, TGCT cohort, all grades).
For COc1cc(N2CCC(N3CCN(C)CC3)CC2)ccc1Nc1ncc(Cl)c(Nc2ccccc2P(C)(C)=O)n1, the radioactivity recovered was 64.8% (human male, feces; oral, 180 mg; baseline: dose).
C[C@@H](Oc1ccc(S(C)(=O)=O)cc1C(=O)N1C[C@@H]2C[C@]2(c2cc(C(F)(F)F)on2)C1)C(F)(F)F — result for “renal clearance at steady state”: 3.77 mL/min (young healthy humans, plasma and urine; oral, 25 mg, 0 to 24 h, multiple dosing once daily).
For C=C[C@@](C)(/C=C/c1ccc(O)cc1)CCC=C(C)C, the accuracy was 108% (rat plasma; 200 ng/mL, 2 weeks, -70 °C, post-preparative stability).
O=C(CCCCCCC(=O)Nc1ccc(CC[18F])cc1)NO gave a tissue uptake of 16.7 ± 1.2 %ID/g (athymic nu/nu male mice, LNCaP xenograft, small intestine; intravenous, 1 h).
Under “incidence of Nausea”, NC1(C(=O)N[C@@H](CCO)c2ccc(Cl)cc2)CCN(c2nc[nH]c3nccc2-3)CC1 is recorded as 0% (metastatic CRPC patients; 320 mg b.i.d., grade 3 to 4, treatment-related, together with: enzalutamide 160 mg daily).
Under “patients, drug-related Overweight TEAEs”, CC(C)C[C@H](NC(=O)[C@@H](Cc1c[nH]c2ccccc12)NC(=O)[C@H](Cc1ccc(O)cc1)NC(=O)[C@H](CO)NC(=O)[C@H](Cc1c[nH]c2ccccc12)NC(=O)[C@H](Cc1c[nH]cn1)NC(=O)[C@@H]1CCC(=O)N1)C(=O)N[C@@H](CCCNC(=N)N)C(=O)N1CCC[C@H]1C(=O)NCC(N)=O is recorded as 25% (Chinese CPP boys; intramuscular, 22.5 mg, 12 months, day 1, month 6).
With Cl.[2H]C([2H])([2H])CC(=O)c1cnc(NC(=O)C2CC2)cc1Nc1cccc(-c2ncn(C([2H])([2H])[2H])n2)c1OC the half-life was 8.11 h (geometric mean; human; oral, 100 mg single dose, fasted, liquid).
Cc1c(-c2ccc(N3CCc4cccc(C(=O)Nc5nc6ccccc6s5)c4C3)nc2C(=O)O)cnn1CC12CC3(C)CC(C)(C1)CC(OCCNCC[C@H](O)CO)(C3)C2: “systemic vascular resistance change” 12% (anaesthetised male beagle dogs; intravenous infusion, 0.3 mg/kg/min, 15 min; baseline: vehicle).
Under “patients with adverse event”, Cc1cc(NC2CCN(C(=O)OC3CCN(C(=O)/C=C/CN(C)C)C3)CC2)n2ncc(C(C)C)c2n1 (centres unmarked) is recorded as 0% (Phase I dose escalation CTCAE v4.0, item: small intestinal obstruction; patients with advanced solid tumours; dose not given, TIW dosing any grade).
Under “Gd concentration ratio”, CC(C(=O)NCC(=O)NCC(CNC(=O)CNC(=O)C(C)N1CCN(CC(=O)[O-])CCN(CC(=O)[O-])CCN(CC(=O)[O-])CC1)(CNC(=O)CNC(=O)C(C)N1CCN(CC(=O)[O-])CCN(CC(=O)[O-])CCN(CC(=O)[O-])CC1)CNC(=O)CNC(=O)C(C)N1CCN(CC(=O)[O-])CCN(CC(=O)[O-])CCN(CC(=O)[O-])CC1)N1CCN(CC(=O)[O-])CCN(CC(=O)[O-])CCN(CC(=O)[O-])CC1.[Gd+3].[Gd+3].[Gd+3].[Gd+3] (centres unmarked) is recorded as 100 (cynomolgus monkey; day 5; baseline: kidney cortex over skin).
O=C(Nc1cnccc1Cl)N1CCN(Cc2ccc3c(c2)OC(F)(F)O3)CC1: “adverse event incidence” 16.7% (item: Headache; human healthy young men; 25 mg, multiple dose).
CC(C)[N+](C)(CCOC(=O)C1c2ccccc2Oc2ccccc21)C(C)C has a remaining compound of 23.6% (mouse, CD-1, both sexes, whole blood; 5 µM, 120 min).
For CN(CCC#N)C1CCN(C(=O)Cn2cc(NC(=O)c3cnn4cccnc34)c(-c3cc(Cl)ccc3OC(F)F)n2)CC1, “device mouthpiece residue” read 3.16% (human; inhalation, 1 mg single dose; baseline: loaded dose).
C[C@H](N[C@@H](CCc1ccccc1)C(=O)O)C(=O)N1[C@H](C(=O)O)C[C@H]2CCCC[C@@H]21 gave an autosampler stability of 99 ± 9.1% (processed human plasma; 300 pg/mL, 48 h, 4 °C; baseline: nominal).
CNC(=O)c1ccc(-c2cnc3ncc(Cc4ccc5ncccc5c4)n3n2)cc1F — result for “Pneumonitis treatment discontinuation”: 0% (Japanese patients; oral, 400 mg, grade 3/4).
O=C1N[C@H](c2cncc(C#Cc3ccccc3)c2)[C@@H](c2ccccc2Cl)O1 has an NOAEL of 15 mg/kg/day (rat; 28 days).
CCc1cc(C(=O)NC)c2nccc(N3CCc4c(cc(Cn5ccnc5)cc4-c4cn(C)nc4C(F)(F)F)C3=O)c2c1: “reticulocyte count change” -17.4% (Sprague Dawley rats; oral, 100 mg/kg once daily, 7 days; baseline: vehicle).
Under “subjects with adverse event”, CC(C)n1c(Nc2cccnc2)nc2cnc(Nc3ccc(N4CCN(C)CC4)cc3)nc21 is recorded as 0% (item: urine leukocytes positive; healthy male subjects; oral, 100 mg, study, together with: itraconazole).
The brain concentration of Cc1coc([C@H]2C[C@H]3[C@@H](CF)SC(N)=N[C@@]3(c3ccc(F)cc3F)CO2)n1 is reported as 13.1 µM (male 129/SVE mouse, brain; subcutaneous, 80 mg/kg, 1 h).
NC[C@@]1(CC(=O)O)[C@@H]2CC[C@H]3C[C@@H]2[C@@H]1C3 — result for “unbound AUC(0-inf) increase”: 12.9% (humans with mild renal impairment, plasma; dose not given; baseline: normal renal function).
Under “entropy of phase change”, C[Si](C)(C)O[Si](C)(C)O[Si](C)(C)C is recorded as 0.133 kJ/(mol·K) (1-octanol/water; concentration not given).
For CCN1CCN(Cc2ccc(Nc3ncc(F)c(-c4cc(F)c5nc6n(c5c4)[C@H](C)CCC6)n3)nc2)CC1, the Tmax was 4 to 17 h (human, phase Ia; 50 to 500 mg, single dose).
With CNc1ccc(-c2nc3ccc(O)cc3s2)cc1 [carbon-11 labelled] the SUV was 0.232 ± 0.028 (ex vivo biodistribution; B6SJL mouse, normal, muscle; intravenous, 30 min).
Under “adverse events incidence”, C=CC(=O)NC1CCN(c2ncc3ncnc(Nc4ccc(Oc5ccc6c(c5)ncn6C)c(C)c4)c3n2)CC1 is recorded as 0% (item: nervous system disorders (SOC); human male; oral, dose not given, CTCAE on-treatment AEs).
With O=C(O)C1=CO[C@@H](O[C@@H]2O[C@H](CO)[C@@H](O)[C@H](O)[C@H]2O)[C@@H]2C(CO)=CC[C@H]12 the accuracy was 92.3% (post-procedure stability; rat plasma; 8 ng/mL, 1 h, room temperature).
CNC(=O)c1ccc(-c2cnc3ncc(Cc4ccc5ncccc5c4)n3n2)cc1F: “abdominal distension incidence” 13% (cancer patients; oral, dose not given, all grades dose escalation).
c1ccc2cc3ccccc3cc2c1: “literature range of log K” 4.15 to 4.76 log units (polyethylene-water partitioning; PAH compilation).
Cc1ccc([C@@H]2O[C@H](CO)[C@@H](O)[C@H](O)[C@H]2O)cc1Cc1ccc(-c2ccc(F)cc2)s1: “urinary sodium excretion change” 5.19 mEq (Japanese type 2 diabetes patients; 25 mg, day 16, 24 h urine collection; baseline: baseline).
For COc1cc(Nc2ncc3c(n2)-c2ccc(Cl)cc2C(c2c(F)cccc2OC)=NC3)ccc1C(=O)O, “decreased lymphocyte count incidence” read 13% (patients; oral, dose not given, grade 4, any attribution, together with: pembrolizumab).
Under “spinal cord distribution advantage”, CC(C)[C@@H](CS(=O)(=O)C(C)C)N1C(=O)[C@@](C)(CC(=O)O)C[C@H](c2cccc(Cl)c2)[C@H]1c1ccc(Cl)cc1 is recorded as 0.5 (FVB mouse, Abcg2 knockout, spinal cord; intravenous, 20 mg/kg, unit not given; baseline: knockout Kp over wild-type Kp).
Under “change in Bicarbonate”, OC[C@H]1O[C@@H](c2ccc(Cl)c(Cc3ccc(O[C@H]4CCOC4)cc3)c2)[C@H](O)[C@@H](O)[C@@H]1O is recorded as -1 mEq/L (Japanese type 1 diabetes patients, blood; 25 mg, day 28; baseline: baseline).
For Cn1cc(Nc2nccc(-c3ccc4c(c3)CN(C3COC3)CC[C@H]4NC(=O)c3cn(C(C)(C)C)nn3)n2)cn1, “percent change from baseline” read 19.7% (item: plasma cell count; human, clinical trial, whole blood; 150 mg twice daily, follow-up).
Under “renal clearance (0-24 h)”, COc1cc(C(=O)NC2CCN(C)CC2)c(F)cc1Nc1ncc(C(F)(F)F)c(Oc2cccc3c2C(=O)N(C)C3)n1 is recorded as 10.8 mL/min (human patients, urine and plasma; oral, 300 mg single dose, geometric mean).
For CC(C)(C)c1ccc(O)c(CN(Cc2cc(C(C)(C)C)ccc2O)C2CCC(NC(N)=O)CC2)c1 (centres unmarked), the recovery was 102 ± 3.11% (human liver microsomes; 5 ng/mL, 3 months, 4 °C, refrigerator storage).
For COC(=O)/C=C/c1cc(C(=O)NCc2ccc(C)cc2)cc(-c2ccc3ncnn3c2)c1, “remaining parent compound” read roughly 25% (mouse, liver microsomes; 1 µg/mL, 60 min, pH 7.4, 0.5 mg/mL protein, together with: NADPH).

For quick reference, copied from above:
Under “incidence of Nausea”, NC1(C(=O)N[C@@H](CCO)c2ccc(Cl)cc2)CCN(c2nc[nH]c3nccc2-3)CC1 is recorded as 0% (metastatic CRPC patients; 320 mg b.i.d., grade 3 to 4, treatment-related, together with: enzalutamide 160 mg daily).
Under “patients, drug-related Overweight TEAEs”, CC(C)C[C@H](NC(=O)[C@@H](Cc1c[nH]c2ccccc12)NC(=O)[C@H](Cc1ccc(O)cc1)NC(=O)[C@H](CO)NC(=O)[C@H](Cc1c[nH]c2ccccc12)NC(=O)[C@H](Cc1c[nH]cn1)NC(=O)[C@@H]1CCC(=O)N1)C(=O)N[C@@H](CCCNC(=N)N)C(=O)N1CCC[C@H]1C(=O)NCC(N)=O is recorded as 25% (Chinese CPP boys; intramuscular, 22.5 mg, 12 months, day 1, month 6).
With Cl.[2H]C([2H])([2H])CC(=O)c1cnc(NC(=O)C2CC2)cc1Nc1cccc(-c2ncn(C([2H])([2H])[2H])n2)c1OC the half-life was 8.11 h (geometric mean; human; oral, 100 mg single dose, fasted, liquid).
Cc1c(-c2ccc(N3CCc4cccc(C(=O)Nc5nc6ccccc6s5)c4C3)nc2C(=O)O)cnn1CC12CC3(C)CC(C)(C1)CC(OCCNCC[C@H](O)CO)(C3)C2: “systemic vascular resistance change” 12% (anaesthetised male beagle dogs; intravenous infusion, 0.3 mg/kg/min, 15 min; baseline: vehicle).
Under “patients with adverse event”, Cc1cc(NC2CCN(C(=O)OC3CCN(C(=O)/C=C/CN(C)C)C3)CC2)n2ncc(C(C)C)c2n1 (centres unmarked) is recorded as 0% (Phase I dose escalation CTCAE v4.0, item: small intestinal obstruction; patients with advanced solid tumours; dose not given, TIW dosing any grade).
Under “Gd concentration ratio”, CC(C(=O)NCC(=O)NCC(CNC(=O)CNC(=O)C(C)N1CCN(CC(=O)[O-])CCN(CC(=O)[O-])CCN(CC(=O)[O-])CC1)(CNC(=O)CNC(=O)C(C)N1CCN(CC(=O)[O-])CCN(CC(=O)[O-])CCN(CC(=O)[O-])CC1)CNC(=O)CNC(=O)C(C)N1CCN(CC(=O)[O-])CCN(CC(=O)[O-])CCN(CC(=O)[O-])CC1)N1CCN(CC(=O)[O-])CCN(CC(=O)[O-])CCN(CC(=O)[O-])CC1.[Gd+3].[Gd+3].[Gd+3].[Gd+3] (centres unmarked) is recorded as 100 (cynomolgus monkey; day 5; baseline: kidney cortex over skin).
O=C(Nc1cnccc1Cl)N1CCN(Cc2ccc3c(c2)OC(F)(F)O3)CC1: “adverse event incidence” 16.7% (item: Headache; human healthy young men; 25 mg, multiple dose).
